Assay results from different studies.
Lines come from different studies, so protocols differ. ± gives the spread as reported.

Compound = N#Cc1ccnc(N2C(=O)CC[C@H]2C(=O)N(c2cncc(F)c2)[C@H](C(=O)NC2CC(F)(F)C2)c2ccccc2Cl)c1; test system = human newly diagnosed mIDH AML, plasma; setting = oral, 500 mg once daily, together with: induction chemotherapy; scale = baseline: cycle 1 day 14 over day 1; endpoint = accumulation ratio AUC0-24; result = 2.35
Compound = Cc1ccc2c(c1)nc(/C=C/c1cccc3cccnc13)n2-c1cccc(OCCCN2CCN(C)CC2)c1; test system = Sprague-Dawley rat, male, plasma; setting = oral, 2.5 mg/kg, 10 h; endpoint = plasma concentration; result = ~0.084 µM
Compound = CC1=C2C[C@H]3[C@@H](CC[C@@H]4C[C@H](NS(C)(=O)=O)CC[C@@]43C)[C@@H]2CC[C@@]2(C1)O[C@@H]1C[C@H](C)CN[C@H]1[C@H]2C; test system = patients, plasma; setting = oral, 60 mg single, day -7, cycle 1; endpoint = AUC(0-24); result = 0.367 µg·h/mL
Compound = CCCC[C@@H]1NC(=O)[C@@H](NC(=O)[C@H](CCC(=O)O)NC(=O)CNC(=O)CN2CCN(CC(=O)O)CCN(CC(=O)O)CCN(CC(=O)O)CC2)CCCCNC(=O)C[C@@H](C(N)=O)NC(=O)[C@H](C(C)C)NC(=O)[C@@H]2CCCN2C(=O)[C@H](CCCNC(=N)N)NC(=O)CNC(=O)[C@H](Cc2c[nH]c3ccccc23)NC(=O)[C@H](CCCNC(=N)N)NC(=O)[C@@H](Cc2ccccc2)NC(=O)[C@H](Cc2c[nH]cn2)NC(=O)[C@H](CCC(=O)O)NC1=O [indium-111 labelled]; test system = normal C57 mice, brain; setting = intravenous, 0.037 MBq, 2 h; endpoint = tissue uptake; result = 0.02 ± 0.01 %ID/g
Compound = Nc1ccc(S(=O)(=O)c2ccc(N)cc2)cc1; test = mitochondrial swelling; test system = BALB/cByJ female mouse liver mitochondria; setting = 30 min, together with: succinate + rotenone; scale = baseline: CaCl2 maximal swelling; endpoint = EC20; result = > 400 µM
Compound = COc1cccc(N2CCN(C3=Nc4c(F)cccc4[C@H](CC(=O)O)N3c3cc(C(F)(F)F)ccc3OC)CC2)c1; test = UHPLC-MS/MS; test system = healthy women, plasma; setting = intravenous infusion, 720 mg single dose, 60 min infusion, HPβCD formulation; endpoint = MRT; result = 403 ± 64.3 min
Compound = CC(C)NC[C@@H](C(=O)N1CCN(c2ncnc3c2[C@H](C)C[C@H]3O)CC1)c1ccc(Cl)cc1; test system = human, hepatic impairment Healthy (Child-Pugh), plasma; setting = oral, 100 mg single, geometric mean; endpoint = Cmax; result = 0.0453 µg/mL
Compound = Cc1c2oc3c(C)ccc(C(=O)N[C@@H]4C(=O)N[C@H](C(C)C)C(=O)N5CCC[C@H]5C(=O)N(C)CC(=O)N(C)[C@@H](C(C)C)C(=O)O[C@@H]4C)c3nc-2c(C(=O)N[C@@H]2C(=O)N[C@H](C(C)C)C(=O)N3CCC[C@H]3C(=O)N(C)CC(=O)N(C)[C@@H](C(C)C)C(=O)O[C@@H]2C)c(N)c1=O; test system = mouse, FVB wild type, plasma; setting = intravenous, 0.5 mg/kg; endpoint = AUC(0-inf); result = 0.168 µg·h/mL
Compound = Clc1ccc(COC(Cn2ccnc2)c2ccc(Cl)cc2Cl)cc1 (stereo not shown); test = mitochondrial swelling; test system = BALB/cByJ female mouse liver mitochondria; setting = 30 min, together with: succinate + rotenone; scale = baseline: CaCl2 maximal swelling; endpoint = EC20; result = 30.5 µM
Compound = CO[C@H]1O[C@H](COS(=O)(=O)O)[C@@H](O[C@@H]2O[C@@H](C(=O)O)[C@@H](O[C@H]3O[C@H](COS(=O)(=O)O)[C@@H](O[C@@H]4O[C@H](C(=O)O)[C@@H](O[C@H]5O[C@H](COS(=O)(=O)O)[C@@H](O)[C@H](O)[C@H]5NS(=O)(=O)O)[C@H](O)[C@H]4O)[C@H](OS(=O)(=O)O)[C@H]3NS(=O)(=O)O)[C@H](O)[C@H]2OS(=O)(=O)O)[C@H](O)[C@H]1NS(=O)(=O)O; test system = male Wistar rat, plasma; setting = subcutaneous, 200 µg/kg; endpoint = bioavailability; result = 115%
Compound = Cn1c(-c2ccc(C(N)=O)cc2F)nnc1C(C)(C)Oc1c(F)cc(Cl)cc1F; test system = healthy young Japanese subjects, plasma; setting = oral, 10 mg once daily, day 18, 14 days dosing; endpoint = AUC(0-tau) mean; result = 1.95 µg·h/mL
Compound = CC(C)[C@H](NC(=O)[C@@H]1CCCN1C(=O)[C@H](CCCNC(=N)N)NC(=O)[C@H](CS)NC(=O)[C@H](Cc1c[nH]c2ccccc12)NC(=O)[C@H](CCCNC(=N)N)NC(=O)[C@@H](Cc1ccccc1)NC(=O)[C@H](Cc1c[nH]cn1)NC(=O)[C@H](CCC(=O)O)NC(=O)[C@H](CS)NC(=O)[C@H](CS)NC(=O)[C@H](CCCCN)NC(=O)[C@@H]1CC(=O)N[C@@H](CCCNC(=N)N)C(=O)N[C@@H](C(C)C)C(=O)N[C@@H](CC(=O)O)C(=O)N[C@H](Cc2ccc(O)cc2)C(=O)N1)C(N)=O [technetium-99m labelled]; test system = C57 mouse, female, B16/F1 melanoma; setting = intravenous, 2 h, together with: NDP-MSH 10 µg co-injected; scale = baseline: tumour over muscle; endpoint = uptake ratio; result = 50.3
Compound = Nc1ccn([C@@H]2O[C@H](CO)[C@@H](O)C2(F)F)c(=O)n1; test system = athymic nude mouse, female, BxPC-3 xenograft, plasma; setting = intravenous, 25 mg/kg; endpoint = elimination half-life; result = 10 min
Compound = CCCC[C@H](NC(C)=O)C(=O)N[C@H]1CCC(=O)NC[C@@H](C(=O)N[C@@H](Cc2c[nH]c3ccccc23)C(N)=O)NC(=O)[C@H](CCCNC(=N)N)NC(=O)[C@@H](Cc2ccccc2)NC(=O)[C@H](Cc2c[nH]cn2)NC1=O; test system = human, plasma; setting = subcutaneous, 3 mg, single dose, healthy volunteers; endpoint = Vd/F; result = 348 L
Compound = O=C([O-])CN1CCN(CC(=O)[O-])CCN(CC(=O)[O-])C(Cc2ccc([N+](=O)[O-])cc2)CN(CC(=O)[O-])CC1.[67Ga+3] (stereo not shown); test = RP-TLC; test system = murine plasma; setting = 24 h, 37 °C, 5% CO2; endpoint = intact radiolabelled complex; result = 95.9 ± 0.1%
Compound = CN1CC[C@H](c2c(O)cc(O)c3c(=O)cc(/C=C/c4c(Cl)cccc4Cl)oc23)[C@H](O)C1; test system = male BALB/c mouse, plasma; setting = oral, 50 mg/kg; endpoint = AUC(0-inf); result = 2.57 µg·h/mL
Compound = O=S(=O)(O)Oc1c(O)cccc1O; test system = human, fasted baseline, cerebrospinal fluid; endpoint = mean concentration; result = 0.0022 µM
Compound = O=c1cc2n(cc1O)CCN(Cc1c(F)cccc1Cl)C2; test system = rat, brain; setting = oral, 100 mg/kg, 4 h, unbound; endpoint = concentration; result = 0.493 µM
Compound = C=CC(=O)Nc1cc(Nc2nccc(-c3cn(C)c4ccccc34)n2)c(OC)cc1N(C)CCN(C)C; test system = Sprague-Dawley rat, male, plasma; setting = oral, 10 mg/kg, together with: avitinib 30 mg/kg daily for 7 days; endpoint = apparent volume of distribution; result = 75.5 ± 27.5 L/kg
Compound = CS(=O)(=O)n1cc2c(n1)CN([C@H]1CO[C@H](c3cc(F)ccc3F)[C@@H](N)C1)C2; test system = healthy male human, plasma; setting = oral, 100 mg, fasted single dose; endpoint = AUC(0-last); result = 88.6 µM·h
Compound = CN1CC[C@H](c2c(O)cc(O)c3c(=O)cc(-c4ccccc4Cl)oc23)[C@H](O)C1; test system = human patients, plasma; setting = intravenous, 30 mg/m^2 loading dose, 0.5 h; endpoint = mean plasma concentration; result = 1.42 µM
Compound = CCN1CCN(c2ccc(Nc3cc(N(C)C(=O)Nc4c(Cl)c(OC)cc(OC)c4Cl)ncn3)cc2)CC1; test = LC-MS/MS; test system = juvenile female Crl:WI(Han) rats, plasma; setting = oral gavage, 0.3 mg/kg/day, postnatal day 17; endpoint = AUC(0-t); result = 0.1 µg·h/mL
Compound = CCOc1ccc2c(c1)C(C)=CC(C)(C)N2; test = LC-MS/MS; test system = laying hens, muscle; setting = oral, 50 mg/kg feed, 56 days; endpoint = residue concentration; result = 9.2 ± 5.3 ng/g
Compound = CS(=O)(=O)n1cc2c(n1)CN([C@H]1CO[C@H](c3cc(F)ccc3F)[C@@H](N)C1)C2; test system = healthy Japanese men, plasma; setting = oral, 10 mg single dose, fed, geometric mean; endpoint = AUC(0-168 h); result = 8.75 µM·h
Compound = Cn1c(=O)[nH]c2[nH]c(=O)n(C)c2c1=O; test system = human hemodialysis patients, plasma ultrafiltrate; setting = pre-treatment; scale = baseline: hemodialysis over normal subjects; endpoint = free concentration ratio; result = 8
Compound = COc1cc(/C=C/C(=O)CC(=O)/C=C/c2ccc(O)c(OC)c2)ccc1O; test = I-125 label; test system = C57BL/6J mouse, cerebral cortex; setting = intranasal vs intraperitoneal, 10 µg/mouse IN, 100 µg/mouse IP, 8 h; scale = baseline: intranasal over intraperitoneal; endpoint = brain uptake ratio; result = 5.28
Compound = C[C@H](Oc1ccc(-c2nc(-c3ccc4[nH]cnc4c3)no2)cc1C(F)(F)F)C(F)(F)F.Cl; test system = cynomolgus monkey aneurysm model, plasma; setting = 0.1 mg/kg once daily, 4 weeks dosing; endpoint = predose plasma concentration; result = 11 ± 2.5 nM
Compound = COc1cccc2c1C(=O)c1c(O)c3c(c(O)c1C2=O)C[C@@](O)(C(=O)CO)C[C@@H]3O[C@H]1C[C@H](N)[C@H](O)[C@H](C)O1; test system = mouse, E0771 tumour-bearing, heart; setting = intravenous, 92 µmol/kg; endpoint = Tmax; result = 30 min
Compound = CC(=O)N[C@@H](Cc1ccccc1)C(=O)N[C@H]1CCCNC(=O)[C@H](CCCNC(=N)N)NC(=O)[C@H](Cc2c[nH]c3ccccc23)NC(=O)[C@@H](CC2CCCCC2)NC(=O)[C@@H]2CCCN2C1=O; test system = C57BL/6J mice, brain; setting = subcutaneous, 1 mg/kg; endpoint = elimination half-life; result = 61 min
Compound = CC1(C)S[C@@H]2[C@H](NC(=O)[C@H](N)c3ccccc3)C(=O)N2[C@H]1C(=O)O; test = mitochondrial swelling; test system = BALB/cByJ female mouse liver mitochondria; setting = 30 min, together with: succinate + rotenone; scale = baseline: CaCl2 maximal swelling; endpoint = EC20; result = > 400 µM
Compound = CCN1C(=O)CNc2ncc(-c3ccc(-c4nc[nH]n4)nc3C)nc21; test system = human, plasma; setting = oral, 8 mg once daily, multiple doses; endpoint = AUC(0-24h); result = 0.286 µg·h/mL
Compound = COC(=O)c1ccc(O)cc1; test = mitochondrial swelling; test system = BALB/cByJ female mouse liver mitochondria; setting = 30 min, together with: succinate + rotenone; scale = baseline: CaCl2 maximal swelling; endpoint = EC20; result = > 200 µM
Compound = C=CC(=O)N1CCC(CNc2ncnc(N)c2-c2ccc(Oc3ccccc3)cc2)CC1; test system = human, plasma; setting = oral, 25 mg single dose, geometric mean; endpoint = Vz/F; result = 621 L
Compound = CCOC(=O)[N-]c1cn(N2CCOCC2)n[o+]1; test = mitochondrial swelling; test system = BALB/cByJ female mouse liver mitochondria; setting = 30 min, together with: succinate + rotenone; scale = baseline: CaCl2 maximal swelling; endpoint = EC20; result = > 400 µM
Compound = Cn1cnc2c(F)c(Nc3ccc(Br)cc3Cl)c(C(=O)NOCCO)cc21; test = refers to: N-desmethyl metabolite; test system = human; setting = oral; scale = baseline: steady state over single dose; endpoint = fraction metabolised ratio; result = ~0.73
Compound = CONC(=N)c1ccc(-c2ccc(-c3ccc(C(=N)NOC)cc3)o2)cc1; test = M1 formation by O-demethylation, substrate; test system = individual human intestinal microsomes; setting = Vmax over Km; endpoint = intrinsic clearance; result = 10 µL/min/mg
Compound = CNC(C)C1CCC(N)C(OC2C(N)CC(N)C(OC3OCC(C)(O)C(NC)C3O)C2O)O1 (stereo not shown); test = mitochondrial swelling; test system = BALB/cByJ female mouse liver mitochondria; setting = 30 min, together with: succinate + rotenone; scale = baseline: CaCl2 maximal swelling; endpoint = EC20; result = > 800 µM

Excerpt of the above:
Compound = C=CC(=O)Nc1cc(Nc2nccc(-c3cn(C)c4ccccc34)n2)c(OC)cc1N(C)CCN(C)C; test system = Sprague-Dawley rat, male, plasma; setting = oral, 10 mg/kg, together with: avitinib 30 mg/kg daily for 7 days; endpoint = apparent volume of distribution; result = 75.5 ± 27.5 L/kg
Compound = CCN1C(=O)CNc2ncc(-c3ccc(-c4nc[nH]n4)nc3C)nc21; test system = human, plasma; setting = oral, 8 mg once daily, multiple doses; endpoint = AUC(0-24h); result = 0.286 µg·h/mL
Compound = CN1CC[C@H](c2c(O)cc(O)c3c(=O)cc(/C=C/c4c(Cl)cccc4Cl)oc23)[C@H](O)C1; test system = male BALB/c mouse, plasma; setting = oral, 50 mg/kg; endpoint = AUC(0-inf); result = 2.57 µg·h/mL
